# Assay results from different studies.
# Each line is one published result; not all experiments were run side by side. ± marks the error that the study gave.
# Histone acetyltransferase RTT109 with Vps75: Histone acetyltransferase RTT109, with Vps75 (Saccharomyces cerevisiae, UniProt Q07794)
# Sequence of UniProt Q07794 (whole entry, looked up): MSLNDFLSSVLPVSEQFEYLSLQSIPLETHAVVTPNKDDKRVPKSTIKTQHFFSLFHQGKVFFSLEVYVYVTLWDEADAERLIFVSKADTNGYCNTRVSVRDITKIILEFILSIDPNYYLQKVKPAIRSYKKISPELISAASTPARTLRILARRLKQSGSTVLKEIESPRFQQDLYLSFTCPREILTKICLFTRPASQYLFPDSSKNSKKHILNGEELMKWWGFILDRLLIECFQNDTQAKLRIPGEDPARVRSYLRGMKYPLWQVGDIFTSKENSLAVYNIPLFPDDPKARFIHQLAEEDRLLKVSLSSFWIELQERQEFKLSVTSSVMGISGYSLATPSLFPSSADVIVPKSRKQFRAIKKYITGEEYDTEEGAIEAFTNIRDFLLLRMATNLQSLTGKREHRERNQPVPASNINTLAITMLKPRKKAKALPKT
# uncharacterized protein: uncharacterized protein (Saccharopolyspora erythraea, UniProt A4F7P9)
# Sequence of UniProt P42336 (whole entry, looked up): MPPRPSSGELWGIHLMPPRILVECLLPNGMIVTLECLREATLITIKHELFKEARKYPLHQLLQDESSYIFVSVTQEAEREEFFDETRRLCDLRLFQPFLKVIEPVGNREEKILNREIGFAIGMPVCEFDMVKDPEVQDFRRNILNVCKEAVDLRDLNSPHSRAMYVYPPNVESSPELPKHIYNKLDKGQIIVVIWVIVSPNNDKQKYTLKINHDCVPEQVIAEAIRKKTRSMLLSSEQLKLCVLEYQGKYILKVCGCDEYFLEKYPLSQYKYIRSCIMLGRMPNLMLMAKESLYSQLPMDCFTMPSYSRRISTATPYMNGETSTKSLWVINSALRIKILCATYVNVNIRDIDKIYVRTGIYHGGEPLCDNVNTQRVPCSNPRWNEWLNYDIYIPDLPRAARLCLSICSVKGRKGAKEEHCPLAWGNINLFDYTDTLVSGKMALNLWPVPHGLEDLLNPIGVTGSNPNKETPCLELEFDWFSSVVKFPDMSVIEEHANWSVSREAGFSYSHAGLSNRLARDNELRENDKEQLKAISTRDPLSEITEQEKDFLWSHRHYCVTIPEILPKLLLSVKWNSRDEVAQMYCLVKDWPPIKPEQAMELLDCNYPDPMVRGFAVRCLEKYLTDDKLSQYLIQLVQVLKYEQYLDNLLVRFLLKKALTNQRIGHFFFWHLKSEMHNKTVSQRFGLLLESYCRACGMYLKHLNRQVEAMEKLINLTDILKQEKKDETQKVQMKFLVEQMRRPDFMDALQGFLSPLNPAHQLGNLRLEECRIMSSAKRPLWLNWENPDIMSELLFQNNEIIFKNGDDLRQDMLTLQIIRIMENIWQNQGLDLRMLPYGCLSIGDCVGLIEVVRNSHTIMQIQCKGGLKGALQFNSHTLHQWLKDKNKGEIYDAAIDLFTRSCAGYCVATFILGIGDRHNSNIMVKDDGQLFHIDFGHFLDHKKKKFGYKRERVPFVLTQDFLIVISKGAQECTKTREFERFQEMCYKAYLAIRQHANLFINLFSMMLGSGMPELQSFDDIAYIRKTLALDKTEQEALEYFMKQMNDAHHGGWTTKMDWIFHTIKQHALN
# Sequence of UniProt P0AF12 (whole entry, looked up): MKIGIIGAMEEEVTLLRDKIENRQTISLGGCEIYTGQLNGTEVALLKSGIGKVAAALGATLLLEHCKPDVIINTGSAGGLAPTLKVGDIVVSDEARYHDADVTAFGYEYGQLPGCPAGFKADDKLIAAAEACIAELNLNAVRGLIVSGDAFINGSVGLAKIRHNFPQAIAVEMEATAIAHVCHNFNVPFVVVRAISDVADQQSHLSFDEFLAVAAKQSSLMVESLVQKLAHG
# Sequence of UniProt Q8TDX7 (whole entry, looked up): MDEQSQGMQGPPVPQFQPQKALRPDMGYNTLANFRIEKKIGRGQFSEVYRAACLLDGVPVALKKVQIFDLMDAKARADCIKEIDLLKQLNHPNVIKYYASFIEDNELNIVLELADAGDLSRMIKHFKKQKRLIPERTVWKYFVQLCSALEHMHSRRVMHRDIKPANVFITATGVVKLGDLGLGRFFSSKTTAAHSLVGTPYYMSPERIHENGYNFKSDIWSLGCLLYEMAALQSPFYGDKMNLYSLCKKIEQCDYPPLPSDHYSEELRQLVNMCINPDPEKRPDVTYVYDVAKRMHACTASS
# Sequence of UniProt P61823 (whole entry, looked up): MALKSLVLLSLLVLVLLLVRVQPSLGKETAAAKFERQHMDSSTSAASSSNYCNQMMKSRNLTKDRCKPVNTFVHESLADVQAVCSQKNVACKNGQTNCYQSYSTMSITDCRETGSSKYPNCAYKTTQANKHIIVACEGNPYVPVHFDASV
# Sequence of UniProt Q13535 (whole entry, looked up): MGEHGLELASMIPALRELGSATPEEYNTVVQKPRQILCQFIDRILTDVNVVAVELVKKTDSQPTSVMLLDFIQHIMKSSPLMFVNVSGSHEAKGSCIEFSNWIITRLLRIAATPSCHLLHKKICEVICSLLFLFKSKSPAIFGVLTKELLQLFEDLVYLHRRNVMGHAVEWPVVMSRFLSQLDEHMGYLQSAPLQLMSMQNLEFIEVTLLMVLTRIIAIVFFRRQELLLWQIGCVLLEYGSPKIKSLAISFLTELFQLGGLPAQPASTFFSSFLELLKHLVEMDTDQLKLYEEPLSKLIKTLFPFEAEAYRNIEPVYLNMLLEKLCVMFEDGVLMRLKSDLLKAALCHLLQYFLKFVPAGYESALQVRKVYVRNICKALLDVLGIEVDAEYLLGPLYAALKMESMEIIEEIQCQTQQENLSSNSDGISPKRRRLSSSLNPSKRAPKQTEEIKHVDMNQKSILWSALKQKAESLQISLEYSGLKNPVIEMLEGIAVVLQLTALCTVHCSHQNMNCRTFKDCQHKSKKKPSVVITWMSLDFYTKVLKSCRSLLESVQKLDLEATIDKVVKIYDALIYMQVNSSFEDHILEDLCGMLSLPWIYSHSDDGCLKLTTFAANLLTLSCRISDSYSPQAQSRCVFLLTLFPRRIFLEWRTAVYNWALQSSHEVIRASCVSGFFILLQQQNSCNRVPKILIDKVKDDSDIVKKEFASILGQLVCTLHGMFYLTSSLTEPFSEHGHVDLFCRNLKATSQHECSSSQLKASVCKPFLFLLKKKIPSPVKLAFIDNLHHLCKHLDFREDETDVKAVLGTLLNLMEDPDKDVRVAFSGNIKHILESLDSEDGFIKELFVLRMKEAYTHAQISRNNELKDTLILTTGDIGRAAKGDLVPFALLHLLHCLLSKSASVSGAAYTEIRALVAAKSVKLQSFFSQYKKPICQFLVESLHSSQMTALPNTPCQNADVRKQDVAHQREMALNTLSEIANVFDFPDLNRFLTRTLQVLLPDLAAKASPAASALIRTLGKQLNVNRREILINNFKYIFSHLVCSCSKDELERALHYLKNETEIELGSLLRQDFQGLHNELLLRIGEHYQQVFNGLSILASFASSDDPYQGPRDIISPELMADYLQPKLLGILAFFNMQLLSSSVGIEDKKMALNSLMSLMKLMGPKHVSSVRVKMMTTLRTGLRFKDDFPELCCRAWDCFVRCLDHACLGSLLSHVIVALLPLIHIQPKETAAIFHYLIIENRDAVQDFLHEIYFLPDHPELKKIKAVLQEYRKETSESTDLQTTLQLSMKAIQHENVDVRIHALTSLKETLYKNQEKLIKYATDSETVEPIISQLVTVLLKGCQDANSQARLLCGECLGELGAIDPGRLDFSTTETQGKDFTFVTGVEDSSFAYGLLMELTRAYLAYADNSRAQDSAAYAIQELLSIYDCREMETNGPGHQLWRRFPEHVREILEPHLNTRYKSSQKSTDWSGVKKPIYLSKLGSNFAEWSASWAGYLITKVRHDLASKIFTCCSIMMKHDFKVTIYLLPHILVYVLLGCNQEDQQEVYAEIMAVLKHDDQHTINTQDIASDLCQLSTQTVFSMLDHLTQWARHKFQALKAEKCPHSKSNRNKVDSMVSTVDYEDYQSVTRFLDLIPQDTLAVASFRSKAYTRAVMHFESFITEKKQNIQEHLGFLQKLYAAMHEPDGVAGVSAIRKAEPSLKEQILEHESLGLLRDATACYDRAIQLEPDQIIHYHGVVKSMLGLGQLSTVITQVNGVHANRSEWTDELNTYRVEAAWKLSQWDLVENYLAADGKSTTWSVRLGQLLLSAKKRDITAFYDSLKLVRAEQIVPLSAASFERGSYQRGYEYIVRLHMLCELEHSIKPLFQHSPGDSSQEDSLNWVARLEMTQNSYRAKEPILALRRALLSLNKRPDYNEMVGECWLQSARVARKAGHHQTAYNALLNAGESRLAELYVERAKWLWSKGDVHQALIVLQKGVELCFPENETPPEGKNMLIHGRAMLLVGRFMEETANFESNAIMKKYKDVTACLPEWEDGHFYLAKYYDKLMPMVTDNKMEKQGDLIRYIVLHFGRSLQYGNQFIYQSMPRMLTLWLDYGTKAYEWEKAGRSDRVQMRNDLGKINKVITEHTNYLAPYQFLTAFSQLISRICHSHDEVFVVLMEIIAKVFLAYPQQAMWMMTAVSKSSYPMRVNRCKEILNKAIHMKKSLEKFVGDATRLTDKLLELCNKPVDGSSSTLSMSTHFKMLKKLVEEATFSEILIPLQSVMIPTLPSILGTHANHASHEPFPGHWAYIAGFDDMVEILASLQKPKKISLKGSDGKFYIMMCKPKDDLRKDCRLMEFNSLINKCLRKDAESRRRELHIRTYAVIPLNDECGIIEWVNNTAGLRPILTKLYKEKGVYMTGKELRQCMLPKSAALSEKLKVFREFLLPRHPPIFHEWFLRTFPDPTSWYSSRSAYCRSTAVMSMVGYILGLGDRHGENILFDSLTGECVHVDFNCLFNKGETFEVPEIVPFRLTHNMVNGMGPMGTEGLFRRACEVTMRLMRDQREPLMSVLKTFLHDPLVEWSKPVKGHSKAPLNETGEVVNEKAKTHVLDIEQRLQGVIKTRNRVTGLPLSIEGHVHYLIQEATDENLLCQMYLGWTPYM
# Sequence of UniProt P62942 (whole entry, looked up): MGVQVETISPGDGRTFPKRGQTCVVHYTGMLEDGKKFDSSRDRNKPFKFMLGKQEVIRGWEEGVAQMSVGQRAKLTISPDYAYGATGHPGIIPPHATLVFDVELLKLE
SMILES,tested on,assay,test system,setting,scale,endpoint,value
O=S1(=O)C=Cc2ccccc21,Histone acetyltransferase RTT109 with Vps75,"enzyme activity, inhibitor, HTS, CPM-based, dose response",,,,IC50,> 125 µM
O=C(O)CCC(=O)C(=O)O,"gltA (Klebsiella pasteurii, UniProt A0A9Q9S525)",,,,,Ki,177 ± 7 µM
CCCCCCCCCc1ccc(C(=O)Nc2cc(C)ccc2C(=O)OC)cc1,"PLK1 (Homo sapiens, UniProt P53350)","degrader, western blot",PC-3,23 h,,DC50,> 60 µM
COc1cc(C)[nH]c(=O)c1CN1CCc2c(Cl)cc([C@H](OC)C3COC3)c(Cl)c2C1=O,"EZH2 (Homo sapiens, UniProt Q15910)","DSF, extrapolated from Tm",,PRC2 with activator peptide,,Ki,5.4e-06 µM
O=S(=O)(NCc1ccccc1)c1ccc2nsnc2c1,Histone acetyltransferase RTT109 with Vps75,"enzyme activity, inhibitor, HTS, CPM-based, dose response",,,,IC50,> 125 µM
NC1CC1(F)c1ccc(Cl)cc1 (stereo not drawn),tyramine oxidase (Arthrobacter sp.),"enzyme activity, competitive inhibitor, Lineweaver-Burk plot",,,,Ki,0.91 ± 0.01 µM
OC[C@H]1OC(O)[C@H](O)[C@@H](O)[C@@H]1O (stereo partly drawn),"Hexokinase-3 (HK3, Homo sapiens, UniProt P52790, E254A)",substrate inhibition,,"mutant E254A, complete substrate inhibition model, with: ATP 20 mM",,Ki,12000 ± 3000 µM
COc1cc(Nc2ncc3c(n2)-c2ccc(Cl)cc2C(c2c(F)cccc2OC)=NC3)ccc1C(=O)NCCOCCOCCNC(=O)COc1cccc2c1C(=O)N(C1CCC(=O)NC1=O)C2=O (stereo not drawn),"PTK2B (Homo sapiens, UniProt Q14289)","binding, kinobead competition",MV4-11 cell lysate,,,EC50,> 30 µM
COc1cc(/C=C/C(=O)N2CCC=CC2=O)cc(OC)c1OC,Toxoplasma gondii,parasite growth,"HFF, bradyzoite, glutamine-induced",,,EC90,6.89 µM
CC[C@@H]1[C@H](F)C(=O)N[C@@H]1COc1nccc2cc(C(N)=O)c(OC)cc12,"ATR (Homo sapiens, UniProt Q13535)","ATP probe binding, KiNativ profiling, item: ATP probe site",THP-1 cell lysate,,,IC50,> 5 µM
O=C(NNC1CC(=O)N(c2ccc(Br)cc2)C1=O)c1cccc(F)c1 (stereo not drawn),Histone acetyltransferase RTT109 with Vps75,"enzyme activity, inhibitor, HTS, CPM-based, dose response",,,,IC50,> 125 µM
C=CC(=O)NCCCCC(=O)N1CCN(c2nc(-c3cnc(N)nc3C(F)F)nc(N3CCOCC3)n2)CC1,"PIK3CA (Homo sapiens, UniProt P42336)",,,,,Ki,0.00586 µM
COc1ccc2[nH]c3c(c2c1)CCN(C1CC(=O)N(c2ccc(Br)cc2)C1=O)C3 (stereo not drawn),Histone acetyltransferase RTT109 with Vps75,"enzyme activity, inhibitor, HTS, CPM-based, dose response",,,,IC50,> 125 µM
Nc1ccn([C@@H]2O[C@H](COP(=O)(O)OP(=O)(O)O)[C@@H](O)[C@H]2O)c(=O)n1,"RNASE1 (Bos taurus, UniProt P61823)",surface sampling native MS,,charge state 7+,,Kd,3.2 ± 0.2 µM
CCCCCCNC(=O)n1cc(F)c(=O)[nH]c1=O,"mtnN (Escherichia coli, UniProt P0AF12)","enzyme activity, non-competitive inhibitor",,with: SAH substrate,,Ki,172 µM
NS(=O)(=O)C#Cc1ccccc1,Toxoplasma gondii,parasite growth,"HFF, bradyzoite, alkaline-induced",,,EC90,40.8 µM
Oc1ccccc1-c1n[nH]cc1-c1ccnc2ccccc12,RCK2 (Candida albicans),"kinase binding, MIB/MS competition",Candida albicans lysate,1 µM,relative to: DMSO,log2 fold change,0.05
O=C1CC(c2cn(Cc3ccccc3)c3ccccc23)C(=O)N1c1ccc(Br)cc1 (stereo not drawn),Histone acetyltransferase RTT109 with Vps75,"enzyme activity, inhibitor, HTS, CPM-based, dose response",,,,IC50,> 125 µM
C[C@H](O)[C@@H](O)[C@@H](O)[C@H](O)C=O,"fucose-binding lectin LecB (Pseudomonas aeruginosa, UniProt A0A0H2ZE85)",,,,,Ki,0.49 ± 0.07 µM
CCCSc1nsc(NC(=O)CN2CCN(c3ccccc3)CC2)n1,Histone acetyltransferase RTT109 with Vps75,"enzyme activity, inhibitor, HTS, CPM-based, dose response",,,,IC50,> 125 µM
COc1cc(C(=O)C(=O)N2CCCC[C@H]2C(=O)OC(CCCc2cccnc2)CCCc2cccnc2)cc(OC)c1OC,"FKBP1A (Homo sapiens, UniProt P62942)","enzyme activity, inhibitor, PPIase",,10 °C,,Ki,0.13 µM
CC[C@H]1OC(=O)[C@H](C)[C@@H](O[C@H]2C[C@@](C)(OC)[C@@H](O)[C@H](C)O2)[C@H](C)[C@@H](O[C@@H]2O[C@H](C)C[C@H](N(C)C)[C@H]2O)[C@](C)(OC)C[C@@H](C)C(=O)[C@H](C)[C@@H](O)[C@]1(C)O,uncharacterized protein,inhibitor,,"pH 7.6, 20 °C, with: p-nitrophenyl-β-D-glucopyranoside",,Ki,164 ± 45 µM
CC[C@H](C)[C@H](NC(=O)[C@H](Cc1ccc(OP(=O)(O)O)cc1)NC(=O)[C@H](CC(N)=O)NC(=O)[C@H](CC(C)C)NC(=O)[C@@H](N)CO)C(=O)N[C@@H](CC(=O)O)C(=O)N[C@@H](CC(C)C)C(=O)N[C@@H](CC(=O)O)C(=O)N[C@@H](CC(C)C)C(=O)N[C@H](C(=O)N[C@@H](CCCCN)C(=O)O)C(C)C,"PTPN11 (Homo sapiens, UniProt Q06124, R111D/S502P)","enzyme activity, activator",,"pH 7.0, 2% DMSO, with: DiFMUP 100 µM, phosphopeptide",,EC50,3 ± 0.4 µM
O=C(Nc1ccc([N+](=O)[O-])cc1Cl)c1cc(Cl)ccc1O,"Anoctamin-1 (Ano1, Mus musculus, UniProt Q8BHY3, R605A)","chloride current, whole-cell patch clamp",HEK-293T TMEM16F knockout,,,EC50,5.66 ± 0.91 µM
Nc1ncnc2c1ncn2[C@@H]1O[C@H](COP(=O)(O)OP(=O)(O)OP(=O)(O)O)[C@@H](O)[C@H]1O,"P2X purinoceptor 1 (P2RX1, Homo sapiens, UniProt P51575)","ion current, agonist, two-electrode voltage clamp",Xenopus oocytes,,,EC50,0.76 µM
CNC(=O)c1ccc(-c2cnc3ncc(Cc4ccc5ncccc5c4)n3n2)cc1F,,"CTCAE v4.0, any causality",human hepatocellular carcinoma patients,"oral, 600 mg twice daily, expansion cohort at RP2D",,dry mouth incidence (all grades),0%
NCc1cc2c(cc1F)C(=O)N(C1CCC(=O)NC1=O)C2 (stereo not drawn),"NEK7/CRBN (Homo sapiens, UniProt Q8TDX7+Q96SW2)","degrader, Western blot",Hep3B,6 h,,DC50,~0.1 µM
c1ccc(Nc2nc(-c3ccccc3)no2)cc1,Histone acetyltransferase RTT109 with Vps75,"enzyme activity, inhibitor, HTS, CPM-based, dose response",,,,IC50,> 125 µM
N[C@@H]1C[C@@]1(F)c1ccccc1,tyramine oxidase (Arthrobacter sp.),"enzyme activity, competitive inhibitor, Lineweaver-Burk plot",,,,Ki,0.83 ± 0.01 µM
Cn1cc(-c2ccc(-c3cncc(Cl)c3N3CCC4(CCNC4=O)CC3)cc2)cn1,COLO 205,"gene expression, microarray, item: TNRC18 mRNA",,"concentration not given, 6 h",relative to: untreated cells,log2 fold change,1.4
O=C(NNC1CC(=O)N(c2ccc(Br)cc2)C1=O)c1cccnc1 (stereo not drawn),Histone acetyltransferase RTT109 with Vps75,"enzyme activity, inhibitor, HTS, CPM-based, dose response",,,,IC50,> 125 µM
CC[C@H]1OC(=O)[C@H](C)[C@@H](O[C@H]2C[C@@](C)(OC)[C@@H](O)[C@H](C)O2)[C@H](C)[C@@H](O[C@@H]2O[C@H](C)C[C@H](N(C)C)[C@H]2O)[C@](C)(O)C[C@@H](C)CN(C)[C@H](C)[C@@H](O)[C@]1(C)O,uncharacterized protein,inhibitor,,"pH 7.6, 20 °C, with: p-nitrophenyl-β-D-glucopyranoside",,Ki,440 ± 50 µM
CNC(=O)[C@@]12C[C@@H]1[C@@H](n1cnc3c(NC)nc(C#C[c-]4cccc4)nc31)[C@H](O)[C@@H]2O.[Fe+2].c1cc[cH-]c1,"ADRA2C (Homo sapiens, UniProt P18825)",radioligand binding,,,,Ki,0.858 µM

# Some of these lines once more:
SMILES,tested on,assay,test system,setting,scale,endpoint,value
O=C(Nc1ccc([N+](=O)[O-])cc1Cl)c1cc(Cl)ccc1O,"Anoctamin-1 (Ano1, Mus musculus, UniProt Q8BHY3, R605A)","chloride current, whole-cell patch clamp",HEK-293T TMEM16F knockout,,,EC50,5.66 ± 0.91 µM
O=C(NNC1CC(=O)N(c2ccc(Br)cc2)C1=O)c1cccnc1 (stereo not drawn),Histone acetyltransferase RTT109 with Vps75,"enzyme activity, inhibitor, HTS, CPM-based, dose response",,,,IC50,> 125 µM
